# Experimental data pooled from the literature.
# Every numbered part comes from another study and shows a few of its results, in no order. Substitutions count along the parent as printed.

# Sample 1 — target: CCND1, cyclin fold, Cln2 fusion (human); method: yeast growth competition, sequencing; medium: yeast; notes: weak parent motif; relative to: not given; direction: higher = stronger binding
# Starting sequence: CDC25A docking peptide (human); PPHRRRLLFACSP
Change,normalised enrichment score
PQHRRRLLFACSP [P2Q],0.54
PLHRRRLLFACSP [P2L],-0.122
PPHRRRVLFACSP [L7V],0.045
PIHRRRLLFACSP [P2I],0.102
PPHRSRLLFACSP [R5S],0.257
PPHRKRLLFACSP [R5K],0.462
PPHRRRFLFACSP [L7F],0.412

# Sample 2 — method: protein-binding microarray; form: double-stranded DNA, one strand shown; medium: in vitro; tested at: 2540 nM top; notes: 60-bp whole probe; with: salmon DNA 0.4 mg/ml; relative to: random background probes; direction: higher = stronger binding; all sequences stand within: GCCTAGCAC … GTCTTGATTCGCTTGACGCTGCTG
# Target: Interferon regulatory factor 3, full length, phosphomimetic (IRF3, Homo sapiens, UniProt Q14653, residues 1-427, S386D/S396D/S398D/S402D/T404D/S405D)
# Construct (chain): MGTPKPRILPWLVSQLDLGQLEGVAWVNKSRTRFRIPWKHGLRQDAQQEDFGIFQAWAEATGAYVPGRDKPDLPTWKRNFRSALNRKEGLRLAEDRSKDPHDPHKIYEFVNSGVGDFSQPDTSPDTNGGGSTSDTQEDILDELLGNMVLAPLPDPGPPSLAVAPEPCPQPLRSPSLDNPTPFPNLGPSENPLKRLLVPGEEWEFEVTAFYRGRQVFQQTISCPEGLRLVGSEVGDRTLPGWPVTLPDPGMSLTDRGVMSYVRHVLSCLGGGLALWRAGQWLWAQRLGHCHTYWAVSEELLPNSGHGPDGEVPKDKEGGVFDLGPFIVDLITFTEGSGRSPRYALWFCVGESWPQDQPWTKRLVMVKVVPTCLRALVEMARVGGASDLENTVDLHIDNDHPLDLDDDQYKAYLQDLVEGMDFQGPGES
Oligonucleotide,fitted relative affinity
GACGATTTTAGTTTCGAGACGTGCTAG,3.71 z-score
TTTGGTATCCTTCTCCTTTAGTGCTAG,8.06 z-score
GACGGTTTCGGGTTTCGGGAGGTGCTA,5.7 z-score
ATAGGTCTCCTTTTCCTTTAGTGCTAG,5.2 z-score
TTAGAGATCAGTATCGATTAGTGCTAG,1.56 z-score
CATCATTTTTCCCTCTGGAAGTGCTAG,1.72 z-score
GACGAACAGGGGTATCGAGACGTGCTA,-0.493 z-score
TCATTTTTGCAAGCTAAAACTGTGCTA,1.13 z-score

# Sample 3 — method: RNA Bind-n-Seq; form: RNA; medium: in vitro; tested at: 365 nM; relative to: no-protein control; direction: higher = stronger binding
# Target: RNA binding protein fox-1 homolog 2, RRM domain, GST-SBP tag (RBFOX2, Homo sapiens, UniProt O43251-10, residues 100-194)
# Notes: natural RNA segment, single round, ends assumed
# All sequences stand within: GGGAGUUCUACAGUCCGACGAUC … UGGAAUUCUCGGGUGCCAA
# Construct (chain): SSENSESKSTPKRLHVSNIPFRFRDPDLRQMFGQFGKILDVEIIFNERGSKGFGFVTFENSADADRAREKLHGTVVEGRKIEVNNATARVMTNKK
Oligonucleotide,RBNS enrichment (R)
UGGCCACAGACAGUUUCAAGUAGUGUCAGAUUUUUGUUGCUUGGGCGGCUGUUGGUAGAGUGGGCAGUGCCCGCGCCAUGGGGUGCUCUGUGGGCUUCUCCAGGAGCAGG,0.531
GGUUCCUCCCUCCCCACCUGCCCUCCUAGCUCCAGCACUGCCCCCGUGGCAGCCCACUUGGACCCCCCUAAAAGGAGGGAAUAGGAGGAGGGCAGGGUGAGUGGGGGCAA,0.212
AUCAGAAGUCCUAGACAGUGACAUUUCUUAAUGGUGGGAGUCCAGCUCAUGCAUUUCUGAUUAUACAAAACAGUUUGCAGUAGGUUAUUUGUCAUUUCAGUUUUUUACUG,0.609
CACUGGCAGAGAGGUAAAGGGUGGGGCAUUGAGAAUGGAGGCUCCCAGGGUCCCUGCCCACUUCUGUUUUCCUAAUGUUUUUCUCUAUAAAGGGUCAGGCCCGUCAGCAU,1.35
CAUCAGCUAUUGAGAUAGGCCUGCUCAGUUAAUAUGGCUUCCUGGCCAGUAGGCAUUCUGUACCAACUUCUAAUAGAAAUGAGGCAAGGACAAACUUGGAUCAAGAGGAC,0.864
AGGCUGGUGGCAUGGCCCCCCUGCCCCGUGCUGAAUGAAUGUACAGAGCCAGACAAAGCUGUGAAUGGCCUAGGGGCUGAGUCCCACACCAGCUGUGAAUUCUCCUGCAG,1.82
AUGAUACAGGGCACCACGGAGAGAAAGUAGAACCAUUUCACUCCUGGGAAGAUGGGGUAUUUCCCACUUCCAGCAACGAAAUAACAAAUGAAAAGUUGCAUACUUAUUGA,0.892

# Mixed results
Molecule,target,test,test system,conditions,how to read,endpoint,value
"PhoQ, residues 284 288 289 292 302 303 HSSMNL","PhoP, residues 12 14 15 18 19 NHFIF (Escherichia coli, UniProt P23836)","Sort-seq, item: YFP reporter",E. coli,"PhoQ-PhoP variant library, with: 10 µM Mg2+","relative to: high Mg2+ state, higher = stronger signaling",fold induction,8.9

# Excerpt of the above (sample 3):
Oligonucleotide,RBNS enrichment (R)
UGGCCACAGACAGUUUCAAGUAGUGUCAGAUUUUUGUUGCUUGGGCGGCUGUUGGUAGAGUGGGCAGUGCCCGCGCCAUGGGGUGCUCUGUGGGCUUCUCCAGGAGCAGG,0.531
AGGCUGGUGGCAUGGCCCCCCUGCCCCGUGCUGAAUGAAUGUACAGAGCCAGACAAAGCUGUGAAUGGCCUAGGGGCUGAGUCCCACACCAGCUGUGAAUUCUCCUGCAG,1.82
AUGAUACAGGGCACCACGGAGAGAAAGUAGAACCAUUUCACUCCUGGGAAGAUGGGGUAUUUCCCACUUCCAGCAACGAAAUAACAAAUGAAAAGUUGCAUACUUAUUGA,0.892
